Assay results pooled from the literature.
Protocols differ between the studies behind these lines.
Sample: plasma

With `CC(C)n1c(Nc2cccnc2)nc2cnc(Nc3ccc(N4CCN(C)CC4)cc3)nc21` the AUC(0-inf) was 892 ng·h/mL (male human; oral, 100 mg, single dose, healthy volunteers).
For `CC(=O)N(C)[C@H]1CCN(C(=O)c2cnc3c(c2)C[C@](C)(c2ccc(F)cc2)N3)C1`, the AUC(0-inf) was 8.01 µM·h (male human; oral, 60 mg, multiple doses, once daily).
With `O=C(COc1ccc(Cl)cc1)NC12CC(c3nnc([C@H]4C[C@@H](OC(F)(F)F)C4)o3)(C1)C2` the AUC was 14.5 µM·h (human; oral, 15 mg, single dose, fasted, healthy volunteers).
`CNC(=O)n1ccc2cc(Oc3ccnc(NC(=O)c4ccc(C5CCN(CCO)CC5)cc4)c3)c(OCCOC)cc21` gave an AUC(0-inf) of 100 ng·h/mL (human; oral, 35 mg, single dose, fed, healthy volunteers).
`CC(C)=CCC/C(C)=C/CC/C(C)=C/CC[C@@](C)(O)CCC1=C(C)C(=O)C(C)=C(C)C1=O` has an AUC(0-t) of 3240 ng·h/mL (human; oral, 400 mg, single dose, healthy volunteers).
`FC(F)(F)c1ccc(CNc2ccc(Cc3c[nH]c4ncc(Cl)cc34)cn2)cn1` gave an AUC(0-inf) of 74100 ng·h/mL (human; oral, 600 mg, single dose).
`CCc1nc2c(C)cc(N3CCN(CC(=O)N4CC(O)C4)CC3)cn2c1N(C)c1nc(-c2ccc(F)cc2)c(C#N)s1` has an AUC(0-inf) of 36700 ng·h/mL (human; oral, 600 mg, fed, healthy volunteers).
`COc1ccc([C@@H]2CN(C(=O)[C@@H](O)CO)C[C@@]2(C)[C@@H](C)O)cc1OC1CN(c2ccc(C)cn2)C1` has an AUC(0-t) of 4140 ng·h/mL (human; oral, 20 mg, single dose, healthy volunteers).
`COc1ccc([C@@H](O)c2cc(-c3ncnc4cc(N5CCOCC5)ccc34)c(F)cc2Cl)nn1` gave an AUC(0-t) of 18300 ng·h/mL (human; oral, 300 mg, multiple doses, twice daily, patients).
For `COc1ccc2c(c1)CN(C(=O)CCN1CCC(Cc3ccccc3)CC1)CC[S@@+]2[O-]`, the AUC(0-inf) was 723 ng·h/mL (male human; intravenous, 0.15 mg/kg, healthy volunteers).
With `NC(=S)NN=Cc1ncccc1N` the AUC(0-inf) was 1030 ng·h/mL (human; oral, 100 mg).

A few entries again:
`COc1ccc([C@@H](O)c2cc(-c3ncnc4cc(N5CCOCC5)ccc34)c(F)cc2Cl)nn1` gave an AUC(0-t) of 18300 ng·h/mL (human; oral, 300 mg, multiple doses, twice daily, patients).
For `COc1ccc2c(c1)CN(C(=O)CCN1CCC(Cc3ccccc3)CC1)CC[S@@+]2[O-]`, the AUC(0-inf) was 723 ng·h/mL (male human; intravenous, 0.15 mg/kg, healthy volunteers).
